Experimental data collected from several papers.
Protocols differ between the studies behind these lines.

| Molecule | target or system | assay | system | setting | scale | quantity | result |
| --- | --- | --- | --- | --- | --- | --- | --- |
| LYDKLVSSF |  | AIM | peptide, CD8+ T cells from PBMC, human donors |  | reference: positive over tested donors | frequency of responding donors | 100% |
| CC[C@H](C)[C@H](NC(=O)[C@H](CC(C)C)NC(=O)[C@H](Cc1c[nH]c2ccccc12)NC(=O)[C@H](CCC(N)=O)NC(=O)[C@@H](NC(=O)[C@H](Cc1ccccc1)NC(=O)[C@H](C)NC(=O)[C@H](CCCCNC(=O)COCCOCCNC(=O)COCCOCCNC(=O)CC[C@H](NC(=O)CCCCCCCCCCCCCCCCCCC(=O)O)C(=O)O)NC(=O)[C@H](CCC(N)=O)NC(=O)[C@H](C)NC(=O)[C@@H](NC(=O)[C@H](CCCCN)NC(=O)[C@H](CC(=O)O)NC(=O)[C@H](CC(C)C)NC(=O)C(C)(C)NC(=O)[C@@H](NC(=O)[C@H](CO)NC(=O)[C@H](Cc1ccc(O)cc1)NC(=O)[C@H](CC(=O)O)NC(=O)[C@H](CO)NC(=O)[C@@H](NC(=O)[C@H](Cc1ccccc1)NC(=O)[C@@H](NC(=O)CNC(=O)[C@H](CCC(=O)O)NC(=O)C(C)(C)NC(=O)[C@@H](N)Cc1ccc(O)cc1)[C@@H](C)O)[C@@H](C)O)[C@@H](C)CC)[C@@H](C)CC)C(C)C)C(=O)N[C@@H](C)C(=O)NCC(=O)NCC(=O)N1CCC[C@H]1C(=O)N[C@@H](CO)C(=O)N[C@@H](CO)C(=O)NCC(=O)N[C@@H](C)C(=O)N1CCC[C@H]1C(=O)N1CCC[C@H]1C(=O)N1CCC[C@H]1C(=O)N[C@@H](CO)C(N)=O |  |  | healthy subjects, single ascending dose | 8.0 mg |  | adverse events (nausea) | 57.1% |
| SIVAGGIVAIVVTCL | human CD4 T cells | AIM | peptide |  |  | responding donors | 9% |
| Nc1ncnc2c([C@@H]3N[C@H](CO)[C@@H](O)[C@H]3O)c[nH]c12 | Zaire ebolavirus | antibody staining | HeLa, Kikwit | 400 µM |  | antigen-positive cells | 0.12% |
| O=C(O)C1(c2ccc(-c3ccc(Cl)c(Cl)c3)c(F)c2)CC1 | Replicase polyprotein 1ab, main protease (rep, Severe acute respiratory syndrome coronavirus 2, UniProt P0DTD1) | reporter gene (mKate2), inhibitor |  | 20 µM |  | inhibition | -0.508% |

A few entries again:
| Molecule | target or system | assay | system | setting | scale | quantity | result |
| --- | --- | --- | --- | --- | --- | --- | --- |
| LYDKLVSSF |  | AIM | peptide, CD8+ T cells from PBMC, human donors |  | reference: positive over tested donors | frequency of responding donors | 100% |
